Measured values gathered from unrelated publications.
Protocols differ between the studies behind these lines. ± marks the error that the study gave.

With `CC[C@H](C)[C@H](NC(=O)[C@H](CC(C)C)NC(=O)[C@H](Cc1c[nH]c2ccccc12)NC(=O)[C@H](C)NC(=O)[C@@H](NC(=O)[C@H](Cc1ccccc1)NC(=O)[C@H](CC(=O)O)NC(=O)[C@H](CCCNC(=N)N)NC(=O)[C@H](C)NC(=O)[C@H](C)NC(=O)[C@H](CC(C)C)NC(=O)[C@H](C)NC(=O)[C@H](CC(=O)O)NC(=O)[C@H](CC(C)C)NC(=O)[C@@H](NC(=O)[C@@H](NC(=O)[C@H](C)NC(=O)[C@H](CC(C)C)NC(=O)[C@H](CCC(=O)O)NC(=O)[C@H](CO)NC(=O)[C@H](CO)NC(=O)[C@H](Cc1ccccc1)NC(=O)[C@@H](NC(=O)CNC(=O)[C@H](CCC(=O)O)NC(=O)CNC(=O)[C@@H](N)Cc1c[nH]cn1)[C@@H](C)O)[C@@H](C)O)[C@@H](C)CC)[C@@H](C)CC)C(=O)N[C@@H](C)C(=O)N[C@H](C(=O)N[C@@H](CCCCN)C(=O)N[C@H](C(=O)N[C@H](C(=O)N[C@@H](CC(=O)O)C(=O)N[C@@H](CCCCN)C(=O)N[C@@H](CCCCN)C(=O)O)[C@@H](C)O)[C@@H](C)CC)[C@@H](C)O` the terminal half-life was 17 h (healthy human subjects, plasma; subcutaneous, 5 mg once weekly, day 36 after 6 doses, steady state, mean).
The intact complex of `O=C([O-])CN1CCN(CC(=O)[O-])CCN(CC(=O)NCC2CCC(C(=O)NC(Cc3ccc4ccccc4c3)C(=O)NCCCCC(NC(=O)NC(CCC(=O)O)C(=O)O)C(=O)O)CC2)CCN(CC(=O)[O-])CC1.[44Sc+3]` (stereo not drawn) is reported as 97.7 ± 0.5% (transmetallation stability; 4 h, 37 °C, added: Mg2+ 10 mM).
`OCc1cn(Cc2ccc(-c3noc(-c4ccc(OCC[18F])c(C(F)(F)F)c4)n3)cc2)nn1` gave a tissue uptake of 1.54 ± 0.07 %ID/g (female Lewis rat, lung; intravenous, 120 min).
`COC(=O)C(c1ccccc1Cl)N1CCC(SCC(=O)c2cccc(OC)c2)C(=CC(=O)O)C1` (mixture of isomers) — result for “deviation from nominal”: -5% (HPLC-MS/MS; feline citrate plasma; 100 ng/mL, 6 h, -20 °C, storage stability).
`C[C@H](NC(=O)[C@H](Cc1cnc[nH]1)NC(=O)[C@H](CO)NC(=O)[C@@H](N)CC(=O)O)C(=O)N[C@@H](CCCCN)C(=O)N[C@@H](CCCNC(=N)N)C(=O)N[C@@H](Cc1cnc[nH]1)C(=O)N[C@@H](Cc1cnc[nH]1)C(=O)NCC(=O)N[C@@H](Cc1ccc(O)cc1)C(=O)N[C@@H](CCCCN)C(=O)N[C@@H](CCCNC(=N)N)C(=O)N[C@@H](CCCCN)C(=O)N[C@@H](Cc1ccccc1)C(=O)N[C@@H](Cc1cnc[nH]1)C(=O)N[C@@H](CCC(=O)O)C(=O)N[C@@H](CCCCN)C(=O)N[C@@H](Cc1cnc[nH]1)C(=O)N[C@@H](Cc1cnc[nH]1)C(=O)N[C@@H](CO)C(=O)N[C@@H](Cc1cnc[nH]1)C(=O)N[C@@H](CCCNC(=N)N)C(=O)NCC(=O)N[C@@H](Cc1ccc(O)cc1)C(=O)O`: “time to fragment appearance” 1.5 h (cationic PAGE; pooled whole saliva supernatant G3, diluted 1:10; 100 µg/mL, 37 °C).
`COc1cc(-c2nc3ccccc3s2)cc(CN2CCN(CC(=O)O)CCN(CC(=O)O)CC2)c1O` has a pKa2 of 6.44 (UV-Vis pH titration; 25 °C, ionic strength 0.1 M NaCl).
`CC[C@@H](C)N([11CH3])C(=O)c1nc(-c2ccccc2)c2ccccc2n1`: “plasma free fraction” 0.186 ± 0.001 (ultrafiltration; rhesus monkey, plasma; TSPO preblock scan).
`CC(C)c1cnc(-c2cc(Cl)ccc2F)cc1Nc1ccncc1C(=O)NC(CO)CO` — result for “patients with related SAE”: 9.5% (measured: any event, worst grade; human patients; oral, dose not given, grade 3).
With `NCCCC(=O)OCC(=O)c1ccc(O)cc1F.O=C(O)C(F)(F)F` the quantum yield was 0.27 (photolysis, measured: GABA appearance; unbuffered water).
`O=C(Cn1c(=O)c(Cc2ccccc2)nc2ccccc21)OCCNCCO` has a safe concentration of 0.4 ± 0.078 µM (MTT; rat primary colonocytes, Albino rat, male; 72 h, concentration at 100% viability).
`C/C(=N\OCCN1CCCC1)c1ccc(C(F)(F)F)cc1` — result for “metabolic stability ratio”: about 3 fold (liver microsomes; baseline: human over mouse).
`NCC(=O)N1CCC[C@H]1C(=O)N1C[C@H](O)C[C@H]1C(=O)O` gave a pKa2 of 3.53 (potentiometric titration; water; 25 °C, 0.15 mol/dm3 NaCl).
Under “subjects with TEAE”, `Cn1c(=O)oc2ccc(-c3ccc(CC(C#N)NC(=O)C4CNCCCO4)c(F)c3)cc21` (stereo not drawn) is recorded as 0% (measured: total protein decreased; human; 80 mg single dose, fasted).
With `CC(C)(O)c1ncc([S@](N)(=O)=NC(=O)Nc2c3c(cc4c2CCC4)CCC3)s1` the AUC(0-tau) was 81900 ng·h/mL (healthy human; oral, 100 mg once daily, day 1, spray-dried dispersion, geometric mean).
With `Cc1ccccc1/N=N/c1ccc(/N=N/c2c(O)ccc3ccccc23)c(C)c1` the stability deviation was -5.5% (rat whole blood extract; 0.2 µg/L, 30 days, -20 °C, long-term storage).
`O=C(O)[C@H]1O[C@@H](N(Cc2ccc(C(F)(F)F)nc2)c2ccc(Cc3c[nH]c4ncc(Cl)cc34)cn2)[C@H](O)[C@@H](O)[C@@H]1O` has a dose excreted of 10.3% (healthy men, urine; oral, 400 mg of [14C]-pexidartinib; baseline: radioactive dose).
The accuracy deviation of `Cc1[nH]c(/C=C2\C(=O)Nc3ccc(F)cc32)c(C)c1NC(=O)CCN1CCN(C)CC1` is reported as -9.72% (dog plasma; 40 ng/mL, 24 h in injector after processing, 4 °C).
`CC/C=C\C/C=C\C/C=C\C/C=C\C/C=C\CCCCOC(CC)C(=O)O` (stereo not drawn) has a tissue concentration of 34 µg equivalents/g tissue (radioactivity, 14C-labelled; Wistar rat, male, kidney cortex; oral, 100 mg/kg, 1 h).
`N=C(N)NCCC[C@@H]1NC(=O)[C@H](Cc2c[nH]c3ccccc23)NC(=O)[C@@H](CC2CCCCC2)NC(=O)[C@@H]2CCCN2C(=O)[C@@H](NC(=O)CCc2ccccc2)CCCNC1=O`: “apparent peripheral volume (V2/F)” 0.41 µg/(ng/g) (C57BL/6J mice, brain; intravenous, 1 mg/kg, two-compartment model).
`CCCC(CCC)NC(=O)c1ccc(O)c(O)c1` gave a Cmax ratio of 2.63 (male Sprague-Dawley rats, plasma; oral, 50 mg/kg of parent drug; baseline: 50 over 20 mg/kg dose).
For `COC(=O)c1ccc(-c2cn(Cc3cc(Cl)ccc3O[11CH3])nn2)cc1`, “distribution volume (VT)” read 0.495 mL/cm³ (PET two-tissue compartment model; rhesus monkey, white matter; dose not given).
With `CC(C)[C@H](NC(=O)CNC(=O)[C@H](CCC(N)=O)NC(=O)[C@H](C)N)C(=O)O` the Cmax was 4540 ng/mL (LC-MS/MS; human, male, plasma; intravenous, 20 mg/kg three times daily, day 3, first dose, 10 min infusion, geometric mean).
`NCCCC(=O)OCC(=O)c1ccc(O)c(C(F)(F)F)c1.O=C(O)C(F)(F)F` gave a quantum yield of 0.11 (photolysis, measured: GABA appearance; aqueous HEPES buffer with LiClO4; pH 7.3).
For `COc1ccc(/C=C/c2ccc(-c3ccc(C)cn3)nc2)cc1`, “radiative decay rate constant” read 0.04 ns⁻¹ (TCSPC; water, HEPES 100 mM; pH 7.4).
Under “time to complete hydrolysis”, `CCCC1OC2CC3C4CCC5=CC(=O)C=CC5(C)C4C(O)CC3(C)C2(C(=O)COC(=O)CN(CC)CC)O1` (stereo not drawn) is recorded as at most 24 h (rat plasma diluted 5.7-fold; 200 µg/mL, 37 °C, 2% DMSO).
`CN(O)C(=O)CCC(=O)NCCCN(CCCCN(CCCNC(=O)CCC(=O)N(C)O)C(=O)CCC(=O)N(C)O)C(=O)CCC(=O)N(C)O.[89Zr]`: “intact compound remaining” 97% (aqueous solution; 7 d, pH 7.2, 37 °C, transmetalation, added: FeCl3 10-fold excess).
`NC[C@@H](C(=O)Nc1ccc(-c2cn[nH]c2)cc1)c1ccccc1` — result for “conjunctival redness score”: 0 (OECD 405 eye irritation; New Zealand White rabbit, eye; topical, 0.1%, 96 h (day 5), scale 0 to 3; direction not given).
For `CC(C)[C@H](NC(=O)[C@@H]1CCCN1C(=O)[C@H](CCCNC(=N)N)NC(=O)[C@H](CS)NC(=O)[C@H](Cc1c[nH]c2ccccc12)NC(=O)[C@H](CCCNC(=N)N)NC(=O)[C@@H](Cc1ccccc1)NC(=O)[C@H](Cc1c[nH]cn1)NC(=O)[C@H](CCC(=O)O)NC(=O)[C@H](CS)NC(=O)[C@H](CS)NC(=O)[C@@H]1CC(=O)N[C@@H](CCCNC(=N)N)C(=O)NCC(=O)N[C@@H](CC(=O)O)C(=O)N[C@H](Cc2ccc(O)cc2)C(=O)N1)C(N)=O` [technetium-99m labelled], “tumour to tissue ratio” read 1.15 (C57 mouse, female, B16/F1 melanoma; intravenous, 0.037 MBq, 0.5 h; baseline: tumour over lung).
`Oc1cc2nc(c1)CNCCCNCCCNCCCNCCCNCCCNC2` has a log β of 54.7 (potentiometric titration; 0.15 M NaClO4; 298.1 K, overall protonation).
`[2H]C([2H])([2H])NC(=O)c1ccc(N2C(=S)N(c3ccc(C#N)c(C(F)(F)F)c3)C(=O)C2(C)C)cc1F` has an MRT of 169 h (male human, plasma; oral, 80 mg, single dose, fasted).
With `Oc1cccc(-c2cccc(O)n2)n1.[Cl-].[Cl-].[Ru+2].c1cnc2c(c1)ccc1cccnc12.c1cnc2c(c1)ccc1cccnc12` the logD was 1.63 (shake flask; octanol/phosphate buffer; pH 7.40).
With `COc1cc2c(cc1OC)CN(CCCCn1ccc3cc(OCC[18F])ccc31)C2` the tracer uptake was 3.54 %ID/g (male CD-1 mouse, heart; intravenous, 15 min).
`CCCC[C@@H]1NC(=O)[C@@H](NC(=O)[C@H](CCC(=O)O)NC(=O)CNC(=O)CN2CCN(CC(=O)O)CCN(CC(=O)O)CCN(CC(=O)O)CC2)CCCCNC(=O)C[C@@H](C(N)=O)NC(=O)[C@H](C(C)C)NC(=O)[C@@H]2CCCN2C(=O)[C@H](CCCNC(=N)N)NC(=O)CNC(=O)[C@H](Cc2c[nH]c3ccccc23)NC(=O)[C@H](CCCNC(=N)N)NC(=O)[C@@H](Cc2ccccc2)NC(=O)[C@H](Cc2c[nH]cn2)NC(=O)[C@H](CCC(=O)O)NC1=O` [gallium-67 labelled] — result for “tumour to kidney ratio”: 0.36 (C57 mice with B16/F1 melanoma; intravenous, 0.037 MBq/mouse, 0.5 h; baseline: tumour over kidney).
With `O=C(CCCCC[N+]#[C][99Tc-5]([C]#[N+]CCCCCC(=O)N[C@H]1C(O)O[C@H](CO)[C@@H](O)[C@@H]1O)([C]#[N+]CCCCCC(=O)N[C@H]1C(O)O[C@H](CO)[C@@H](O)[C@@H]1O)([C]#[N+]CCCCCC(=O)N[C@H]1C(O)O[C@H](CO)[C@@H](O)[C@@H]1O)([C]#[N+]CCCCCC(=O)N[C@H]1C(O)O[C@H](CO)[C@@H](O)[C@@H]1O)[C]#[N+]CCCCCC(=O)N[C@H]1C(O)O[C@H](CO)[C@@H](O)[C@@H]1O)N[C@H]1C(O)O[C@H](CO)[C@@H](O)[C@@H]1O` (stereo partly drawn) the tumour/blood ratio was 17.2 ± 7.4 (biodistribution; BALB/c nude mouse U87 MG xenograft; 2 h; baseline: tumour over blood).
`CCN(CC)C(=O)c1ccc(-c2cc(NCCCN3CCCCC3)c3ccccc3n2)cc1` gave a serum concentration of about 680 nM (C57BL/6 mice, male, serum; oral, 0.03% w/w in chow, 5 days).
`CCc1cc(Nc2nc(-c3ccc(-n4cnc(C)c4)c(F)c3)cs2)c(C)cc1C`: “terminal elimination rate constant” 2.22e-05 s⁻¹ (human, both sexes, plasma; oral, 100 mg once daily, day 14, multiple dose, geometric mean).
For `CCN(CC)c1ccc2c(-c3ccccc3C(=O)OCCOCCOCC[18F])c3ccc(=[N+](CC)CC)cc-3oc2c1`, the tracer uptake was 0.38 %ID/g (rat, bone; 1 h).
For `CN1CCC(N[C@@H]2CCc3[nH]c4c(C(N)=O)ccc(-c5ccccc5Cl)c4c3C2)CC1`, the clearance was 120 ± 24.2 mL/min/kg (BALB/c mice, plasma; intravenous, 2 mg/kg).
Under “emission shift on zinc binding”, `COc1ccc2cc(-c3ccc(-c4ccc(C)cn4)nc3)oc2c1` is recorded as 4400 cm⁻¹ (acetonitrile; concentration not given, added: Zn(ClO4)2, saturating; baseline: zinc-free ligand).
`COc1cc(C)c(Cc2ccc(O)cc2)cc1[C@@H]1S[C@H](CO)[C@@H](O)[C@H](O)[C@H]1O` — result for “urinary excretion 0-24 h”: 5.86 ± 0.674% (Japanese T2DM patients, urine; 1 mg luseogliflozin, day 1, once daily; baseline: dose).
`CN1CCC[C@]1(C)/C=C/S(=O)(=O)NC(=O)Nc1c2c(cc3c1CCC3)CCC2` has an AUC(0-tau) of 7700 ng·h/mL (human, plasma; oral, 12.5 mg twice daily, day 1, tau 12 h, multiple ascending dose).
`N[C@@H](COc1ccccc1C(F)(F)F)c1ccccc1` gave a clearance of 258 ± 3.33 mL/min/kg (male Sprague-Dawley rat; oral, 25 mg/kg).
